Measurements collected from several papers.
Each numbered part is a random draw from the data of one study; scales do not carry over between parts.

Study 1
Target: Prothrombin, mature alpha-thrombin (F2, Homo sapiens, UniProt P00734)
Technique: aptamer microarray, sandwich
Form: DNA with 2'F-ANA
Matrix: in vitro
Tested at: 200 nM
Notes: whole 15-mer aptamer, many near background
Added: Cy3 exosite-II aptamer, 400 nM
Reading: higher = stronger binding
Sequence: GGTTGGTGTGGTTGG
| Modification | mean fluorescence intensity [a.u.] |
| --- | --- |
| 2'F-ANA at 1 4 10 11 13 14 | 67.2 |
| 2'F-ANA at 1 2 3 6 7 8 10 11 12 13 | 79.6 |
| 2'F-ANA at 2 3 4 6 7 9 10 13 15 | 169 |
| 2'F-ANA at 1 2 9 12 13 | 305 |
| 2'F-ANA at 2 3 4 5 8 9 11 | 85.2 |
| 2'F-ANA at 1 3 4 5 6 8 13 14 | 46.7 |
| 2'F-ANA at 6 8 9 10 11 12 14 15 | 98.9 |
| 2'F-ANA at 2 4 5 8 9 10 11 | 58.7 |
| 2'F-ANA at 2 3 5 6 7 8 10 11 12 13 15 | 56.1 |
| 2'F-ANA at 7 8 10 11 14 15 | 148 |
| 2'F-ANA at 6 7 8 10 13 14 | 101 |
| 2'F-ANA at 1 4 5 6 7 10 11 12 14 15 | 50.7 |
| 2'F-ANA at 2 3 6 7 8 9 12 13 15 | 834 |
| 2'F-ANA at 1 2 6 10 12 13 | 62.3 |
| 2'F-ANA at 1 6 9 10 11 13 14 | 84.5 |
| 2'F-ANA at 7 8 9 10 11 12 13 15 | 180 |
| 2'F-ANA at 1 2 4 5 6 7 9 10 12 14 | 46.7 |
| 2'F-ANA at 3 7 8 9 12 13 14 | 738 |
| 2'F-ANA at 2 4 6 7 10 12 13 | 92.4 |
| 2'F-ANA at 2 6 9 11 | 317 |
| 2'F-ANA at 2 8 10 12 13 15 | 152 |
| 2'F-ANA at 3 6 10 11 13 | 450 |
| 2'F-ANA at 3 4 5 6 7 8 10 14 15 | 45.4 |
| 2'F-ANA at 2 3 4 5 8 11 12 14 | 53.3 |
| 2'F-ANA at 2 3 4 7 10 11 12 13 | 277 |

Study 2
Target: Ras GTPase-activating protein-binding protein 1, full length (G3BP1, Homo sapiens, UniProt Q13283)
UniProt Q13283, sequence (whole entry, looked up): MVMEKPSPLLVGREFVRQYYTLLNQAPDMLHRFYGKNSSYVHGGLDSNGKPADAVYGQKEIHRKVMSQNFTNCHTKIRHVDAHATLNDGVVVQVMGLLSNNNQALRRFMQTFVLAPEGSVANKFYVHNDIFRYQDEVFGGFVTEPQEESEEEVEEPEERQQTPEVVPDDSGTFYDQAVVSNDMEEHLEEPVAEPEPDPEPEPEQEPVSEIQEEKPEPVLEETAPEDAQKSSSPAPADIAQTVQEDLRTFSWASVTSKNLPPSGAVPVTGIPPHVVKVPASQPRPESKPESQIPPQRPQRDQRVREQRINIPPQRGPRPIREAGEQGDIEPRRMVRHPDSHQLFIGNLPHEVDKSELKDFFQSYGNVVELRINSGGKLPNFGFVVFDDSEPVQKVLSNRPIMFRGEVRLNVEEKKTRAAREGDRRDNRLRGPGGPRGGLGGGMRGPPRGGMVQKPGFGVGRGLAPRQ
Technique: RNA Bind-n-Seq
Form: RNA
Matrix: in vitro
Tested at: 200 nM
Notes: whole 134-nt RNA, ends assumed
Added: 150 mM KCl
Baseline: input library
Reading: higher = stronger binding
Constant ends, left off below: GGGAGUUCUACAGUCCGACGAUC … UGGAAUUCUCGGGUGUCAAGG
| Sequence | log2 enrichment |
| --- | --- |
| GUCCUGUGCUACACAUCGUAUGUACCGAAUCGGGGCCCCCGGGCCCCCGGCCCCCGGGGAAAGUAUUAUGUUACGCCGUUCGGAUCUGCA | -0.532 |
| CCUCAAGUCCUGUGCUACACAUCGUAUGUACCGAAUCGGAGGGAGGGGAGGGGAAAGUAUUAUGUUACGCCGUUCGGAUCUGCACUUCCA | 0.808 |
| UCAAGUCCUGUGCUACACAUCGUAUGUACCGAAUCGGGGUGGGGUGGGGAGGGGAAAGUAUUAUGUUACGCCGUUCGGAUCUGCACUUCC | 1.65 |
| ACCAUGCAGGUGGGCAUCUUUGGGAAGUGGGGCAAGGGGGGGAUAGGGAGGGGGUUAACACUUUGGGAACAGGUGGUCCCAGGUCGUUUC | 1.51 |
| UCAAGUCCUGUGCUACACAUCGUAUGUACCGAAUCGGCCGGGGCCGGGCCGGGGAAAGUAUUAUGUUACGCCGUUCGGAUCUGCACUUCC | -0.363 |
| AGUCCUGUGCUACACAUCGUAUGUACCGAAUCGGGGCCCCGGGCCCCGGCCCCGGGGAAAGUAUUAUGUUACGCCGUUCGGAUCUGCACU | -1.18 |
| GCAGGAAGUAAAAACAAAUGGUAAUGCUUCGGAUAGUGGCAGGGGUGGGGGUUGCUAAGGAAAGGGUGGGAUGGGAGUGGGUAAAGAGUU | 1.05 |
| UGGCCCUGGUGGCAUGCGGGGAGGAAGAGGUGGCCCCAUGGAUCGUGGUGGUCCCGGUGGAAUGUUCAGAGGUGGCCGUGGUGGAGACAG | 0.288 |
| CACAGACAACACGCACCCACACAGACACAGAGGGAAGGGGUUGGGAUGGGGACAGGGUGCACAGCUGGGCGGGGUAGGACCCCAGCCCCU | 1.8 |
| UCAAGUCCUGUGCUACACAUCGUAUGUACCGAAUCGGAAAGGAAAGGGAAAGGGAAAGUAUUAUGUUACGCCGUUCGGAUCUGCACUUCC | -0.749 |
| CCUGUGCUACACAUCGUAUGUACCGAAUCGGGAAAAAAGGGGAAAAAAGGAAAAAAGGGGAAAGUAUUAUGUUACGCCGUUCGGAUCUGC | -0.567 |
| CUCAAGUCCUGUGCUACACAUCGUAUGUACCGAAUCGGAAGGGGAAGGGAAGGGAAAGUAUUAUGUUACGCCGUUCGGAUCUGCACUUCC | 1.3 |
| AGUCCUGUGCUACACAUCGUAUGUACCGAAUCGGGUUUGGGAAAAAAAGGGAAAGGGAAAGUAUUAUGUUACGCCGUUCGGAUCUGCACU | -0.0866 |
| UAACUUUAGAGGAGGCUCUGAUGGAUAUGGCAGUGGACGUGGAUUUGGGGAUGGCUAUAAUGGGUAUGGAGGAGGACCUGGAGGUGGCAA | 0.35 |

Study 3
Cell line: yeast with cyclin F-Cln2 chimera
Read-out: cell growth
Mode: binder
Technique: competitive growth deep sequencing
Form: peptide
Tested at: concentration not given
Notes: peptide tiling library
Reading: direction not given
| Sequence | growth enrichment score |
| --- | --- |
| RVSGLLSWTLSRVLWL | 2.38 |
| RRRIKLPESDSSED | 1.04 |
| NSMKELNFSHLPSNSV | 0.222 |
| TTTTSPRTPPPLTVQD | -0.794 |
| KRRLDLETDHQY | 3.78 |
| KVKRRLDLDIDGLQKE | 4.01 |
| LKGRRLVFDN | 4.65 |
| NEGVSNAVRRSLYIRD | 1.34 |
| SPPRGRRLFPPGPAGF | 2.33 |
| PFSENVSAVQKLDFSD | 0.99 |
| VKTKKRLNFDDK | 2.77 |
| SMTDFYHSKRRLIFSK | 3.52 |
| KRNLLNEFDRII | 2.25 |
| DSGFCLDSPGPLDSKE | -0.505 |
| GFGFLLFICKLTF | 1.41 |
| KSKHEEEEWTDDDLVE | 0.414 |
| RQVRRDLFAF | 2.24 |

Study 4
Target: RING finger protein unkempt homolog, zinc fingers 1-6, GST-SBP tag (UNK, Homo sapiens, UniProt Q9C0B0, residues 30-357)
Technique: RNA Bind-n-Seq
Form: RNA
Matrix: in vitro
Tested at: not given
Notes: RNA with constant flanks, ends assumed
Baseline: input RNA pool
Reading: higher = stronger binding
Constant ends, left off below: GGGAGUUCUACAGUCCGACGAUC … CAACAGAGGAUUGAGCAUCA
Construct (chain): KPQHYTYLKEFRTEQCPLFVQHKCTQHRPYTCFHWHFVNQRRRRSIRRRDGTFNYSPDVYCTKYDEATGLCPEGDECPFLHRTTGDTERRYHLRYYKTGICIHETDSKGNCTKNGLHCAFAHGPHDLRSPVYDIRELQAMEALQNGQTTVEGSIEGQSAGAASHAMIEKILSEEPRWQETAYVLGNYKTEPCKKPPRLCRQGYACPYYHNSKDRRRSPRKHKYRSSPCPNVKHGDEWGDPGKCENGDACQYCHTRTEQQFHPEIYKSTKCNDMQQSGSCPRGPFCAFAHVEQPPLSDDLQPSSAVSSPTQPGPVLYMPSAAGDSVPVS
| Sequence | bound/input enrichment [ratio] |
| --- | --- |
| UGGUAUACAGACCAGUUUUAGGACUGGUAAUCCAACAGGGACUUACCAGAAUGGUUAUGACCGCACUCAGCAAUACGGAAGUAAUGUUCCAAAUAUGCACAAUGGUAUGAACCAACAGGC | 0.127 |
| UCAGCGAGGACCUCUGCAAGCCAAAAAAUGUCGUCCCAGCAAUAUCAGCAGCAACGCCGAAAAUUUGCAGCUGCCUUCCUGGCAUUGAUUUUCAUCUUGGCAGCUGUGGACACUGCUGAG | 0.0782 |
| AGCAAUGAAAAAGCAGCCCUUCUCCCAGCCCCCUUUUCACUAGGAGACACAAACAUUACAACCGAAGAGCAAUUAAACUCAAUAAAUUUAUCUUUUCAGGAUGAUCCAGAUUCCAGUACC | 2.3 |
| CUUCUCUAACUUUUUCAGUUCACAAUUUACUUGGUCCAGAUUUUCUAUUCUUUUUUUUUAACCCGUAAAUGAAAUUUACAUACUUCAUAAAAUUAUGAACAGAUAGCGCAUUGGGCUCUG | 0.722 |
| ACGCAGGAAGAAGUGUCUUCAGAAGAUGAAGAUGAAGAGAUGCCUGAGGAUACAGAAGACCCCGAUCACUAUGAAAUGAAAGAGGAAGAGCCAGCCGAGGGCAAGAAGUCUGAAGAUGAU | 0.148 |
| CUUAUCAAUCCAGAUGAACUGAGGGACAUCUGUUGGUCUAUGUAUAACUUUUAAAAUUGGUACCGUAUCUACAGAGUGUAUAAUUUAAACUAACCACAAAGCUUUACAUCUUCAUUUUGA | 0.163 |
| GAGGAUGCUGCCUCCUACGUUAGAAAGGUUAUUCCAAAAGAUUAUAAGACAAUGGCUGCUUCCGCCAAGGCCAUCGAAAAGAAUGUGCUGUUUUCACACCUUGAUGAUAACGAGAGAAGU | 1.74 |
| GGGAAAAACAGCCUCUCCGUACUUUCACCAAAAAUUGGAAAUCUACUAUUUCUUUCCUACUCCGACAUCAAAGGCAAUCACUUUGAAGUCCUCCCUCCCGAGCUGGGAGACUGCCGGGCU | 0.328 |
| UACGGCAAAGGCAAGAGUAACAGCAGCGCCGUCCCGUCCGACAGCCAGGCCCGGGAGAAGUCCGCACUCUACGUGUAUGAAUAUCUGCUCCAUGUAGGAGCUCAGAAAUCGGCUCAGACA | 0.051 |
| GCCACAAAAUAUUUAAUGUGUUGUGCCUUCAUGAUGUAACAGAACAUUCUCCAGGCCGGGCCGUUGGGGGAAAUAAAGGGAUAAAUCUCUAAUUAUUGCUGUUUAACUGUUUGUUAUCAU | 0.423 |
| CGGAACUGCCUAGUGGGCGAGAACCAUGUGGUGAAAGUGGCCGACUUUGGUUUAAGCCGACUGAUGACUGGAGAUACCUACACUGCUCAUGCUGGAGCCAAAUUUCCUAUUAAAUGGACA | 0.151 |

Some of these lines once more (study 1):
| Modification | mean fluorescence intensity [a.u.] |
| --- | --- |
| 2'F-ANA at 1 2 9 12 13 | 305 |
| 2'F-ANA at 2 3 4 5 8 9 11 | 85.2 |
| 2'F-ANA at 1 3 4 5 6 8 13 14 | 46.7 |
| 2'F-ANA at 6 8 9 10 11 12 14 15 | 98.9 |
| 2'F-ANA at 2 4 5 8 9 10 11 | 58.7 |
| 2'F-ANA at 2 3 5 6 7 8 10 11 12 13 15 | 56.1 |
| 2'F-ANA at 7 8 10 11 14 15 | 148 |
| 2'F-ANA at 6 7 8 10 13 14 | 101 |
| 2'F-ANA at 1 4 5 6 7 10 11 12 14 15 | 50.7 |
| 2'F-ANA at 2 3 6 7 8 9 12 13 15 | 834 |
| 2'F-ANA at 1 2 6 10 12 13 | 62.3 |
